Results pooled from the literature.
A part holds a random share of what one study measured.

Series 1 — technique: RNA Bind-n-Seq; molecule type: RNA; sample: in vitro; concentration: 365 nM; baseline: no-protein control; reading: higher = stronger binding
Target: RNA binding protein fox-1 homolog 2, RRM domain, GST-SBP tag (RBFOX2, Homo sapiens, UniProt O43251-10, residues 100-194)
Setting: natural RNA segment, single round, ends assumed
Constant ends, left off below: GGGAGUUCUACAGUCCGACGAUC … UGGAAUUCUCGGGUGCCAA
Target sequence (chain): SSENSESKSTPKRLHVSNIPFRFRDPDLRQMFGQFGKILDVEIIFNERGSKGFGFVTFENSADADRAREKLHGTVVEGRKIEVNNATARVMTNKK
| Oligonucleotide | RBNS enrichment (R) |
| --- | --- |
| UUCUCUGUAGCUCCAGGGGAAUCUUUUUCUCUAAAACGUUUAUGCCCUCGCUUUGGCUAGAAACACAUUAACUGGUUUACUCAUUGGGAAUCCAGCAUAUUUAAGAGGUA | 0.46 |
| CCUAGGGUGCCACUGAAUAAGAGACAGUAGAGAGCCCUGUCCUCUGGGGAUACAGCACCUGCUUCACCGCUGCCUCGUGUGUGUGAAGACCAAGGAGACCCCCAAGGGUA | 0.377 |
| ACUGUCCCAGACGAGGGGCUUCCUCUAGAGUCUCACUGCUGGGGAGGAGAGGACUGGGCCUGAUGGAAGUUAACCCGGAGCUAAGUCACCCAGAGCACAGGAGCUGCCAU | 0.391 |
| AAGAACGGCCACCCGGUUUUGCCAGCGUUCAGCGUCUGCCCAUGGACCCAUAAGGCACAUUAGCGUUGGGGGUCUCUUUUCAGCAGCCUCACAGACAUUCCCGUCCUUUC | 0.231 |
| UCAAGCACUGACACUCAUUACCGUCUGUGAUUGCCAUUUCUUCCCAAGGCCAGUCUGAACCUGAGGUUGCUUUAUCCUAAAAGUUUUAACCUCAGGUUCCAAAUUCAGUA | 0.296 |
| AAGAGUUGAUGGAGACCCAGGGAUUGGACACCAUCUCCCAACCCCAGUACUCCUGCUCUCCGGUGCCACCUCACCUUCUUUGGCUUCUUCCCUCUUGCCUCCUUCUGUUC | 0.844 |
| UUUGAAAACUGGGGACCAGUUCCAAAGUCAGUAAUUGUGUUAACCACGUGUAUAACAGCUCUGCUGGACACCCAAGAAAGCCAUGGGAACGCCAACUGGAAAGGUCCCCU | 0.215 |
| GUUCUUCACCCUCACAGUGAUACCUCCUUUCCUUGGGUCUCUUGGCCUCCAGACCCCCUCAAUAGACACUGACUAAAGUCAGGCUGGAGUCAUGAGGGUAGUGGGCUAAG | 0.291 |
| AUGAGCAUCUGCAUGUUGACUCUUCAGUUAAGAAAAUUGUUGUUCAUUUAGGGAGGUGGAUAUUCUGAUGAAGAUCUUUAUCCUAAACCUUCCUACUAUCCUUGUCUUAU | 10.2 |
| AACAGCAUAGGAUUGUAUGUGGGAGGUGGAUAGGUCGGUGAUGUGUGGAGCGGAAAAGCAGGUUGGUAAAGUUCCCUUCUUGGGACUUAUUCCUGGAGUCAGUGGAUACA | 1.22 |
| UGAAUGGAAUAUAACAAUUCAGCUUAAUUCCCCAACCUUAUUCUGUGUGUAGACAUUGUAUUCCACAAUUUUGAAUGGCUGUGUUUUACCUCUAAAUAAAUGAAUUCAGA | 0.475 |
| GCUAUUUAGGGUAGGCUUAAAGUGCUGGGUGGUGAUUUGAGUUCAAACAAUAAAAAAUUGUAUUUUUUCAAUAUUGUAUAAACAAUAGUGUUCUAAUUACCUUAAAAAAA | 0.712 |

Series 2 — technique: EMSA with sequencing; molecule type: double-stranded DNA, one strand shown; sample: in vitro; concentration: 10 and 20 nM; baseline: negative control set to 0; reading: higher = stronger binding
Target: Hepatocyte nuclear factor 3-alpha (Foxa1, Mus musculus, UniProt P35582, residues 1-468, full length assumed)
Setting: whole designed probe, mean of two concentrations, ends assumed
Constant ends, left off below: GTGAGCGGTGCCCATTGATGGGGAAC … TTTCACTGGGATCGTGGGGAC
Residues (chain): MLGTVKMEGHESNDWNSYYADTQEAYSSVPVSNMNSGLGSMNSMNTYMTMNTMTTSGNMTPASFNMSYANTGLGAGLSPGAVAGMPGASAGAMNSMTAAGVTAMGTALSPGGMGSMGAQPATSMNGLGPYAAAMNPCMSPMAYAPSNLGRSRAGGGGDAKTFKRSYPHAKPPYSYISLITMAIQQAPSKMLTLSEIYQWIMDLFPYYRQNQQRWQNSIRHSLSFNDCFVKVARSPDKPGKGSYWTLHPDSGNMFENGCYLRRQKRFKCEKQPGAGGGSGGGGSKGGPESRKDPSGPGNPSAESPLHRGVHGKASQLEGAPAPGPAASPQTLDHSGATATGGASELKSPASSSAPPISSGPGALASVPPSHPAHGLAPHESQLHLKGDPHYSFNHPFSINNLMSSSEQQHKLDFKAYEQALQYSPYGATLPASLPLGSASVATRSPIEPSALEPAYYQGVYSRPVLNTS
| Oligonucleotide | normalised bound fraction |
| --- | --- |
| TTGAGTATAGACCCAATAATAGGATTGTTGGGTCAAATTTCTGTTTTTAGCTCTTTGAAGAAGCGCCACATTTCTTCCCACAATGGTTGAACTAAATTACACACCTGCCAAGACTGTGTAAGTGTTCTCTTTTCTCCACAACCTCTCCAGCATCTTTTATTTTTTGACTTTTTTTGTGTGTTCTACTTTGTTA | 0.024 ratio |
| AGAACACCATGTGTAGGGAACCTGAATTTTTTGTAATAGGCCGTAAGCATGCCTGCCCTTTGGCCTGGAAAGAGACACTATATCTTCCAGGGCTGTTTGCTGTGTAAACATCCTTGAAAAGACAGCCTTGAACAAAGGGCAGTCAATAGTTCTACTCAAAAGACATGGAGAAATGCAAAAGACCCATGGAGAT | 0.366 ratio |
| CTGAATACATCAAAATTGTGTGAGATTATTGTTACCAATAACAAATAAATCTACTTACAAGTGGACCTTATTGTTAGACATGGCATGGCAATGTAATCTTAGAACCTTTGAATCAATAAATATAAAATTCATAAAGGATTACATTTTACAGTGGAACAAGTGGTTTCAAGTATAGCAAATCTGAAAATGAAAA | 0.268 ratio |
| AGATGGCCAACTGGCACTTTTATAATTTTTAAAAGAGCTGACAATTAAAAAGATGTGGGATGGGGGAAAATAAAGAGAATTCCTCCCTAAAAAAGTAAACAAGTACTAATTTTTTTATTATTTGGGTGATCAGTGCTAATCAGATTGACTTTATTTGGAGGCCCTGAGAACCACATGGTACCAAAAATCCAGA | 0.4 ratio |
| AATCCAGCTACCTATCTTCAGTTCCTTGGCCTTCAGCTGGCAGTGAAACAGACACATCAGCTTTAAGACTGGCAGCCAAATAGTTAACGATCTGTAAACATACATAGAGAGTATTACGCAAGTCCTGTTCAAACAGACTGGATGAAAGCCCTTCCATAAAGAACCCTTTAGGTGATGATGCTAAAATTATTTT | 0.385 ratio |
| ATCTTCCCCCTCTTCCTTGCCCCACCAGCTCACCTTCCCGGGTGGAATCTTTATAGGAAAATAAATAAAGCCGGCATTCGTTAACCCTCTTCTGGCGCAAACTGCTGTTTGCTCTGGATGAATCATGGTCCTTTGGCGACGCCAGGCTCCGGGAGAGCAAAGCACCGTGTCAGGGCCATGATCCGGGGTGGCC | 0.312 ratio |
| ATTAGTTCATGCCAGGCAGGGTTTGACCAAAACCTTGGACTCACTCCTGTCTGCTTTCCTTCAGTGACTAAGAGGATTCCTGAGATGGATGTGCAATCTTGAAGAGATTACTTTCCTCCATGGGAATGTACTTCTGGCTTCCACTCCTCAGCTGCTGCTGCTAAGCCAGTGAGATAGATGGTGGTTTGGAAAC | -0.024 ratio |
| TCCACAGTAGAAACGAAGGAGATGACAGATACCCCGGCACCAAAACTGACACCAGGTTTTTGTTGCTTCTTCCACTATATAATGGAGAAGTTCAGATTACTCTAGTTGTGCAACTACTGTTAACATTGGCTTAAGGAAACCCAAGAAACTGAATCACATCAAAGGTATGTCAGAGGTATGTGAACCAGAGCAA | 0.228 ratio |

Series 3 — technique: protein-binding microarray; molecule type: double-stranded DNA, one strand shown; sample: in vitro; concentration: 2540 nM top; setting: 60-bp whole probe; together with: salmon DNA 0.4 mg/ml; baseline: random background probes; reading: higher = stronger binding; constant ends, left off below: GCCTAGCAC … GTCTTGATTCGCTTGACGCTGCTG
Target: Interferon regulatory factor 3, full length, phosphomimetic (IRF3, Homo sapiens, UniProt Q14653, residues 1-427, S386D/S396D/S398D/S402D/T404D/S405D)
Sequence of UniProt Q14653 (whole entry, unmodified, looked up): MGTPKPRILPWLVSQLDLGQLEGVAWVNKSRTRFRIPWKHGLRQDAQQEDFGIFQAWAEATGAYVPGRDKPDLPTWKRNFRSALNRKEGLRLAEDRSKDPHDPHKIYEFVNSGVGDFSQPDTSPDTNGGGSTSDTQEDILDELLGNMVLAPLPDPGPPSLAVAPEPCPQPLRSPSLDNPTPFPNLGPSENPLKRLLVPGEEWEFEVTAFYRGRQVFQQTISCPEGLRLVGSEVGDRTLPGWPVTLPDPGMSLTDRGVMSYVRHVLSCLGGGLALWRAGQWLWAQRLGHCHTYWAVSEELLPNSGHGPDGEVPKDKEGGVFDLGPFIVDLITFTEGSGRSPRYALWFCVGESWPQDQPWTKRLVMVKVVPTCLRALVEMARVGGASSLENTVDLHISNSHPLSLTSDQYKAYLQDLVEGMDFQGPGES
| Oligonucleotide | fitted relative affinity [z-score] |
| --- | --- |
| TTAGATATCAGTCTCGTTTAGTGCTAG | 1.64 |
| AGTTTTTACTTTCTGAATGCGTGCTAG | 4.12 |
| TTAGGTATAGGGACTGGGTTAGTGCTA | -0.804 |
| TCACCTTGGAAGTATGACACTGTGCTA | -0.0939 |
| TTCTTTTTTTTCTTTAAAAGGTGCTAG | 2.7 |
| TTCAGTTTTCCTCTGTCATTGTGCTAG | 2.18 |
| TTAGGTCTCGGTATCGGTGAGTGCTAG | 1.57 |
| TTAGATTTGAGTCTCGATTAGTGCTAG | -0.02 |
| TTAGATCTCTGTTTCGATTAGTGCTAG | 2.87 |
| TCACTTCTCCATTTTTCACTGTGCTAG | 2.44 |
| GACGATTTCAGTTTCGAAACGTGCTAG | 6 |
| TTAGATTCCAGTTTCGATTAGTGCTAG | 4.95 |
| GTCGGTATCCTTATCCTGACGTGCTAG | 6.45 |
| TCACTATTATATATATCACTGTGCTAG | 0.821 |
| TTAGGACTGGGGTTTCGATTAGTGCTA | 1.08 |
| GACGATTTCGGGCTTCGAGACGTGCTA | 1.27 |
| AATAAAATGAATATTAGAAGGTGCTAG | -0.0207 |
| GACGGTTTCGACTATCGGGAGGTGCTA | 2.85 |
| TTAGGTTTCGTTCTCGGTTAGTGCTAG | 8.25 |
| ATTAGTATGTTCACTATTTAAGTGCTA | 0.637 |
| TTAGATTTCAGTATCGCTTAGTGCTAG | 2.43 |
| GACGGTCTCCTTTTCCTTACGTGCTAG | 4.96 |

Series 4 — technique: protein binding microarray; molecule type: double-stranded DNA, one strand shown; sample: in vitro; concentration: not given; baseline: not given; reading: higher = stronger binding
Target: Histone acetyltransferase KAT6A, winged helix 1, GST fusion (KAT6A, Homo sapiens, UniProt Q92794, residues 1-85)
Setting: 8-mer, flanks averaged, mean of 2 arrays, mostly near background
Construct (chain): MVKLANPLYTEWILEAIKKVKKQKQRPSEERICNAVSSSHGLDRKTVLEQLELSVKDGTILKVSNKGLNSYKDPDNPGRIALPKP
| Oligonucleotide | E-score |
| --- | --- |
| CGTCCGCA | 0.226 |
| GAGCGGAC | 0.232 |
| CTCCGCAA | 0.0667 |
| TGCGCCAA | 0.153 |
| AACGGCCA | 0.255 |
| ACCAAAGG | -0.126 |
| CATGATAA | -0.114 |
| AACCGGTG | 0.215 |
| ACCCTACA | -0.308 |
| GGATACCC | 0.0866 |
| AAAATAAG | -0.181 |
| CCCAAACA | -0.273 |
| CACCCCTA | -0.0924 |
| AAAGGGAT | -0.194 |
| TCCTCACA | -0.168 |
| CTGGTGAC | -0.074 |
| CACTCCTG | -0.152 |
| TAAAGAGA | -0.187 |
| GCTTAAGA | 0.0799 |
| GCCGATCA | 0.0514 |

Series 5 — technique: aptamer microarray, sandwich; molecule type: DNA with 2'F-ANA; sample: in vitro; concentration: 200 nM; together with: Cy3 exosite-II aptamer, 400 nM; reading: higher = stronger binding; oligonucleotide: GGTTGGTGTGGTTGG
Target: Prothrombin, mature alpha-thrombin (F2, Homo sapiens, UniProt P00734)
Setting: whole 15-mer aptamer, many near background
| Modification | mean fluorescence intensity [a.u.] |
| --- | --- |
| 2'F-ANA at 1 2 3 4 5 6 8 9 10 11 13 15 | 50.7 |
| 2'F-ANA at 2 3 5 6 7 8 11 13 14 15 | 54.4 |
| 2'F-ANA at 2 4 5 7 8 13 14 15 | 45.4 |
| 2'F-ANA at 1 2 3 4 5 6 9 10 13 | 49.5 |
| 2'F-ANA at 1 2 4 5 6 7 8 10 11 12 | 92.7 |
| 2'F-ANA at 2 3 4 7 8 10 12 15 | 322 |
| 2'F-ANA at 4 6 7 10 11 12 15 | 122 |
| 2'F-ANA at 1 2 3 4 10 12 13 | 67.9 |
| 2'F-ANA at 2 6 11 12 14 | 147 |
| 2'F-ANA at 1 2 4 5 6 7 8 10 14 | 45.1 |
| 2'F-ANA at 2 3 5 10 11 12 14 15 | 52.1 |
| 2'F-ANA at 1 2 3 4 7 8 10 11 12 14 | 68.7 |
| 2'F-ANA at 2 6 9 10 11 12 | 143 |
| 2'F-ANA at 2 4 6 7 10 12 13 14 15 | 73.5 |
| 2'F-ANA at 2 3 4 5 9 12 13 15 | 115 |
| 2'F-ANA at 1 2 3 4 7 8 9 10 11 12 | 81.7 |
| 2'F-ANA at 3 6 7 8 10 14 | 368 |
| 2'F-ANA at 2 3 4 10 11 14 | 198 |
| 2'F-ANA at 2 3 4 6 9 11 14 15 | 213 |
